Assay results gathered from unrelated publications.
Lines come from different studies, so protocols differ. Several values in a cell are separate wells, animals, samples, runs or records. ± gives the spread as reported.
GLP1R: Glucagon-like peptide 1 receptor (GLP1R, Homo sapiens, UniProt P43220)
Sequence of UniProt Q96S37 (whole entry, looked up): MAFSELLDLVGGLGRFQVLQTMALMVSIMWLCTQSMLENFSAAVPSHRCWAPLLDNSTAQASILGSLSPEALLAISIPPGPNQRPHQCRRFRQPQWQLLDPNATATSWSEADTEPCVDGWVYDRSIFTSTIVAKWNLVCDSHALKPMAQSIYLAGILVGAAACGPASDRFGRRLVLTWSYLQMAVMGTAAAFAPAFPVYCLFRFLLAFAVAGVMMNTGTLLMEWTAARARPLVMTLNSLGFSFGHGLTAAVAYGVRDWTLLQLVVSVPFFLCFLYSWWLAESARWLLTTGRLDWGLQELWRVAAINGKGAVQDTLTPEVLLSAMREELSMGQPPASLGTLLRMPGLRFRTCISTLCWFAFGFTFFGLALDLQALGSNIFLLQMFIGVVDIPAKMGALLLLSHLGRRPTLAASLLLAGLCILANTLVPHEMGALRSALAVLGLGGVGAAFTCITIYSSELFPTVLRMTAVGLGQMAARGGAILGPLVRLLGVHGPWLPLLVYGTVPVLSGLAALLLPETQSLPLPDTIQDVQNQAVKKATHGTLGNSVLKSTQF
Sequence of UniProt P02769 (whole entry, unmodified, looked up): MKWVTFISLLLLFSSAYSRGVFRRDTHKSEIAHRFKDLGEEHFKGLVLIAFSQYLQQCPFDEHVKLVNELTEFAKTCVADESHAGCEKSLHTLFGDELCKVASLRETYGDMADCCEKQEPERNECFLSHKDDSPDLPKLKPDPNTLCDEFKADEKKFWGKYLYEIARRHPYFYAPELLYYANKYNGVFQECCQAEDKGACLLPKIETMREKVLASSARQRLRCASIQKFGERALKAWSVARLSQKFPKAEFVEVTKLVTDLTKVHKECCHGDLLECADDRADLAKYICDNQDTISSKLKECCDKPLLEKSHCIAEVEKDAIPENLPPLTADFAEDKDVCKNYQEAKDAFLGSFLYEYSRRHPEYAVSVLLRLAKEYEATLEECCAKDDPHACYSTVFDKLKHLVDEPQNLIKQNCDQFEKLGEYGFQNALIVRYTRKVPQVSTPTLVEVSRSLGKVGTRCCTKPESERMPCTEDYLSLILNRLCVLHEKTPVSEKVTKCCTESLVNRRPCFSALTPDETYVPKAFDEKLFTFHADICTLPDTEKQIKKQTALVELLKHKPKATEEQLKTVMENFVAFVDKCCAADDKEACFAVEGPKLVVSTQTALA
Sequence of UniProt Q9HB20 (whole entry, looked up): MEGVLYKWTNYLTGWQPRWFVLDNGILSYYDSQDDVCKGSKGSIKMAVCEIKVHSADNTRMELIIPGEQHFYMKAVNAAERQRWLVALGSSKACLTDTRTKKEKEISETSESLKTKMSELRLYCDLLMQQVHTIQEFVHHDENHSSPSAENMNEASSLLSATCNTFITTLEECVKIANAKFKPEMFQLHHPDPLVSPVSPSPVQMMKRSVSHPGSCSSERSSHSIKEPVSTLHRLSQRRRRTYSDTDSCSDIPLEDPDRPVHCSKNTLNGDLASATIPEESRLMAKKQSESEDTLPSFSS
Sequence of UniProt O43194 (whole entry, looked up): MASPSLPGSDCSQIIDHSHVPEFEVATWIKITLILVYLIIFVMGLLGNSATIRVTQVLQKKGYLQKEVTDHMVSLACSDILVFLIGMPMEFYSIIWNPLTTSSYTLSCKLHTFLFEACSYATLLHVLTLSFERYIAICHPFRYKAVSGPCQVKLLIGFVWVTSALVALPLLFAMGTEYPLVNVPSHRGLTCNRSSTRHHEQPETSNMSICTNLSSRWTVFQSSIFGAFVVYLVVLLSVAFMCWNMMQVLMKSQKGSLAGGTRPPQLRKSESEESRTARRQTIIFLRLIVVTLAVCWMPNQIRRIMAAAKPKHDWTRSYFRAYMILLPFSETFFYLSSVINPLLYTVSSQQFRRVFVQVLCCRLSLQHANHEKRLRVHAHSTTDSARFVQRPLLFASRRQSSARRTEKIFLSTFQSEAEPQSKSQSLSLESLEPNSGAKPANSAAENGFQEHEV
Sequence of UniProt P00441 (whole entry, unmodified, looked up): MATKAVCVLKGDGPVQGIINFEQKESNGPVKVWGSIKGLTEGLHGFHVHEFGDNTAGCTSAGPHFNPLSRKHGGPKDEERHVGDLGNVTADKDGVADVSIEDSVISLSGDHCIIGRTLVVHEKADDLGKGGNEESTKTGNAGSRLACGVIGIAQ

COc1cc(Nc2ncc3c(n2)-c2ccc(Cl)cc2C(c2c(F)cccc2OC)=NC3)ccc1C(=O)O
remaining activity (PRKD1; kinase activity; 1 µM): 102%

CCOc1ccc(C(=O)CC(SCc2ccc(Cl)cc2)C(=O)OC)cc1 (stereo not shown)
selectivity ratio (PLEKHA3, PH domain (Homo sapiens, UniProt Q9HB20); fluorescence polarization; baseline: other family proteins over target): ~30 fold

NCC[C@H](O)C(=O)N[C@@H]1C[C@H](N)[C@@H](O[C@H]2O[C@H](CN)[C@@H](O)[C@H](O)[C@H]2O)[C@H](O)[C@H]1O[C@H]1O[C@H](CO)[C@@H](O)[C@H](N)[C@H]1O
ΔG° (Albumin (ALB, Bos taurus, UniProt P02769); binding, tryptophan fluorescence quenching; pH 7.4, 283 K): -31.1 kJ/mol

CCc1oc2ccccc2c1C(=O)c1cc(Br)c(O)c(Br)c1
normalized urate uptake (SLC22A12 (Homo sapiens, UniProt Q96S37); inhibitor; HEK-293T; 0.03 µM, 10 min, 37 °C, with: [14C]urate 10 µM): 0.977 and 1.09 and 0.966

[O-][S+]1CCCCS1 (stereo not shown)
SOD1 monomer fraction (SOD1 (Homo sapiens, UniProt P00441, G94A); LC-MS; brain homogenate; 5 µM, 1 h, 37 °C): 98.6%

CCN1CCC[C@H]1CNC(=O)c1c(O)c(Cl)cc(Cl)c1OC
log2 fold change (GPR39 (Homo sapiens, UniProt O43194); β-arrestin recruitment, TANGO luminescence; concentration not given; baseline: basal luminescence): 0.166

Cn1c2c(c(=O)n(C)c1=O)C(C(F)(F)F)(C(F)(F)F)N=C(c1ccc(Cl)cc1)N2
receptor activation (GLP1R; antagonist, CRE-luciferase; HEK-293T; 25 µM, 12 h, with: agonist 100 nM): inhibited

N#CCC(=O)Nc1ccc(C2CCCCC2)cc1
hepatic clearance (liver microsome stability; mouse liver microsomes; 1 µM): 74 mL/min/kg

CC[C@H](C)[C@@H]1NC(=O)[C@H]([C@@H](C)CC)NC(=O)[C@@H](Cc2ccc(O)cc2)NC(=O)CSC[C@@H](C(N)=O)NC(=O)[C@H](CCCNC(=N)N)NC(=O)[C@H](CCCCN)NC(=O)[C@H](CC(C)C)NC(=O)[C@H](CO)NC(=O)[C@H](CO)NC(=O)[C@H](CC(C)C)NC(=O)[C@H](Cc2ccccc2)NC(=O)[C@H](C(C)C)NC(=O)CNC(=O)[C@H](CC(C)C)NC(=O)[C@@H]2CCCN2C(=O)[C@H]([C@@H](C)O)NC(=O)[C@H](CC(=O)O)NC1=O
ΔG (Vacuolar protein sorting-associated protein 29 (VPS29, Homo sapiens, UniProt Q9UBQ0); binding, ITC; 25 °C, protein alone): -9.5 ± 0.06 kcal/mol

C=CCNC1=C2C[C@@H](C)C[C@H](OC)[C@H](O)[C@@H](C)/C=C(\C)[C@H](OC(N)=O)[C@@H](OC)/C=C\C=C(/C)C(=O)NC(=CC1=O)C2=O
luminescence signal reduction (NanoBiT HiBiT/LgBiT luciferase; inhibitor, HiBiT luminescence counterscreen; conditioned medium only; 5 µM, 24 h; baseline: vehicle): -5.02%

CC[C@H](C)[C@H](NC(=O)[C@H](Cc1ccccc1)NC(=O)[C@H](CCC(=O)O)NC(=O)[C@H](CCCNC(=N)N)NC(=O)[C@H](C)NC(=O)[C@H](C)NC(=O)[C@H](CCC(N)=O)NC(=O)[C@H](CCC(=O)O)NC(=O)[C@H](CCC(=O)O)NC(=O)[C@H](CC(C)C)NC(=O)[C@H](Cc1ccc(O)cc1)NC(=O)[C@H](CO)NC(=O)[C@H](CO)NC(=O)[C@@H](NC(=O)[C@H](CC(=O)O)NC(=O)[C@H](CO)NC(=O)[C@@H](NC(=O)[C@H](Cc1ccccc1)NC(=O)[C@@H](NC(=O)CNC(=O)[C@H](CCC(=O)O)NC(=O)[C@H](C)NC(=O)CCc1cnc[nH]1)[C@@H](C)O)[C@@H](C)O)C(C)C)C(=O)N[C@@H](C)C(=O)N[C@@H](Cc1c[nH]c2ccccc12)C(=O)N[C@@H](CC(C)C)C(=O)N[C@H](C(=O)N[C@@H](CCCNC(=N)N)C(=O)NCC(=O)N[C@@H](CCCNC(=N)N)C(=O)N[C@@H](CCCCNC(=O)COCCOCCNC(=O)COCCOCCNC(=O)CC[C@H](NC(=O)CCCCCCCCCCCCCCCCC(=O)O)C(=O)O)C(=O)NCC(=O)NCC(=O)N[C@@H](CO)C(=O)N[C@@H](CCSC)C(=O)N[C@H](C(=O)N[C@@H](CCCCNc1c(NCCCCCN(O)C(=O)CCC(=O)NCCCCCN(O)C(=O)CCC(=O)NCCCCCN(O)C(C)=O)c(=O)c1=O)C(=O)O)C(C)C)C(C)C
fold potency loss (GLP1R; agonist, CRE luciferase reporter; BHK cells; metal-free DFO conjugate, with: 0% HSA; baseline: parent peptide): 1.5

O=C(NCCN1CCCC1=O)c1ccc(C2CCCCC2)cc1
hepatic clearance (hepatocyte stability; cryopreserved mouse hepatocytes; 1 µM): 63 mL/min/kg

C[C@@H]1CCN(C(=O)CCl)[C@@H](C(N)=O)C1
cysteine occupancy (human NEDD9 full length; LC-MS peptide mapping, measured: Cys18; 50 µM, 0.5 h): 3.8%

Some of these lines once more:
O=C(NCCN1CCCC1=O)c1ccc(C2CCCCC2)cc1
hepatic clearance (hepatocyte stability; cryopreserved mouse hepatocytes; 1 µM): 63 mL/min/kg
